Results of several laboratories.
Numbered parts are unrelated; each lists some results of a single study. Positions count from the first letter of the parent shown.

Sample 1
Target: CCNA2, cyclin fold, Cln2 fusion (human)
Method: yeast growth competition, sequencing
Matrix: yeast
Setting: strong parent motif
Baseline: not given
Direction: higher = stronger binding
Starting sequence: CDKN1B docking peptide (human); PSACRNLFGPVDH
Variant | normalised enrichment score
PSACRNYFGPVDH [L7Y] | 0.248
PSACRNLFGAVDH [P10A] | 3.28
PSACRNLFGPFDH [V11F] | 3.7
PSACRELFGPVDH [N6E] | 3.08
PSACANLFGPVDH [R5A] | -0.353
PSACRNLYGPVDH [F8Y] | 0.263
PSACRNLFGPVMH [D12M] | 3.23
WSACRNLFGPVDH [P1W] | 3.84

Sample 2
Target: Fragile X messenger ribonucleoprotein 1, C-terminal low-complexity region (Fmr1, Mus musculus, UniProt P35922)
Method: RNA Bind-n-Seq
Molecule type: RNA
Matrix: in vitro
Tested at: 200 nM
Setting: whole 134-nt RNA, ends assumed
Together with: 150 mM KCl
Baseline: input library
Direction: higher = stronger binding
Oligonucleotide | log2 enrichment
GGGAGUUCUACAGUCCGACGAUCUCAUUAGAAGAUCUAAUUGAGAGAGAGGUAACUGGUAUCCUUUUCCUACCAUAAAAACUGAAAGCAGUAUUUAUUGUGAAAUUCUAAUACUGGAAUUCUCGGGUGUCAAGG | -0.101
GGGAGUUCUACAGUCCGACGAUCCACAGACAACACGCACCCACACAGACACAGAGGGAGGGGGUUGGGAUGGGGACAGGGUGCACAGCAGGGCGGGGUAGGACCCCAGCCCCUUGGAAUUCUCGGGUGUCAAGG | 1.2
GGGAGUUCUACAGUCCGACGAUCCUCAAGUCCUGUGCUACACAUCGUAUGUACCGAAUCGGUUUGGUUUGGUUUGGAAAGUAUUAUGUUACGCCGUUCGGAUCUGCACUUCCAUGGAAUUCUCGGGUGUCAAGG | -0.303
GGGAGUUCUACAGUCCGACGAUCACCAUGCAGGUGGGCAUCUUUGGGAAGUGGGGCAAGGGGGGCAUAGGGAGGGGGGUAACACUUUGGGAACAGGUGGUCCCAGGUCGUUUCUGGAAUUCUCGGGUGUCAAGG | 0.639
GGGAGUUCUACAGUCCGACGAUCCAAGUCCUGUGCUACACAUCGUAUGUACCGAAUCGGUUUUGGUUUUGGGUUUUGGAAAGUAUUAUGUUACGCCGUUCGGAUCUGCACUUCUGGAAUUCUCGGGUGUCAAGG | -0.785
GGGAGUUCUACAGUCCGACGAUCCAAGUCCUGUGCUACACAUCGUAUGUACCGAAUCGGUUUUUUUGGAAAAAGGAGGAAAGUAUUAUGUUACGCCGUUCGGAUCUGCACUUCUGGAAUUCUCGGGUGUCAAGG | -0.699

Sample 3
Target: RNA binding protein fox-1 homolog 2, RRM domain, GST-SBP tag (RBFOX2, Homo sapiens, UniProt O43251-10, residues 100-194)
Method: RNA Bind-n-Seq
Molecule type: RNA
Matrix: in vitro
Tested at: 365 nM
Setting: natural RNA segment, single round, ends assumed
Baseline: no-protein control
Direction: higher = stronger binding
Target sequence (chain): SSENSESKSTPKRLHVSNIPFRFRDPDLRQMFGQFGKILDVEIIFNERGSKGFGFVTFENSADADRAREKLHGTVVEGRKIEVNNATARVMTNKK
Oligonucleotide | RBNS enrichment (R)
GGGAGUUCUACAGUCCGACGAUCGGCAUGUAUCUGUAGUUCCUUGCUGAGUAACAAGAAGUAAAAUACAUGUUUGUAUAUCUACAUUUACAUUCUGCGCCCCAGAGCUAAGACAGACUGCGAAUCACUUUUCUUGGAAUUCUCGGGUGCCAA | 1.88
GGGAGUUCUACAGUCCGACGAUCGGCAUUUAUCACUGUUGGCCGGUGUGAUGAGUAUAGAGUGCCACCCAAGGCACCAGUCACACAAGCUGAUGGGCGUCUUGGCUCUGCCGUCAUGUGGAUGUUAUUGUCGCUGGAAUUCUCGGGUGCCAA | 0.391
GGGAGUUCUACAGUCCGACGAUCUCAGGUCAACUGGAUAAGAUUGUAGAACUCAUGACAGGCGGAGCUCAAACCCCAGUCACCAAUGCAAAUAAAAUCUUCUAUUUAAACCUGCUGGCUCAGUAUCGGCUGGCUGGAAUUCUCGGGUGCCAA | 0.302
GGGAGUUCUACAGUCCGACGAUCAUAAUAAAGUGUCUGCCGGCUCGCGGGCCAGGAUCCUCUCGGUGGGAUGGGCACCACAGACAGGAGGCCCCUCAGGCCCGUGCGGGCCACUGUCUGCUGCCGCCUGCCGGUGGAAUUCUCGGGUGCCAA | 0.441
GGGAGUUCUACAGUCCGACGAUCCUUGUGAUAUCAGUGUAUGCGUACCUGUGUCGCUUUAUUUGCAGUGUGUUGAGGGACUGGUGUAUCCACUGGAAUAGUUGGUACUCUUGGAUGUGUUUUCUCACCAAGAUUGGAAUUCUCGGGUGCCAA | 0.529
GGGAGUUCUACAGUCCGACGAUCAAUGGCUUUCACUUUCUCUUUUGUUUUAAAUGACUCAUAGGUCCCUGACAUUUAGUUGAUUAUUUUCUGCUACAGACCUGGUACACUCUGAUUUUAGAUAAAGUAAGCCUUGGAAUUCUCGGGUGCCAA | 0.347
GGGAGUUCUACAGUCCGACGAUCAAACUCCCUCUGGCUGCUGCUGCUGCUUUUUGGUGUCCCGACAUACCUACGCCCCCGUUUUAUGGGUUUGGCUUAGUUGAAGAGGAAAGGGUUGUGCAAGGAGAGCAGGAUGGAAUUCUCGGGUGCCAA | 0.63
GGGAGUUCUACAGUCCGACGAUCGAGAGAGCGUGUAACGUCAGAUUUGUGCCUGUCUCGAACAUUCUGUCCUAAUCAUACUUAAACAUCAGGCAGGUGGGGUUCAGUGGUAAGCGAAGGGAUUAUUAGCAAGGUGGAAUUCUCGGGUGCCAA | 1.81
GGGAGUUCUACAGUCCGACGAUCCGGGGGAUGGAAAGGAAGAUAAAUGUUAUUUGUUCACUUUUGUAAGACUCUGUUCUGGGUGUGGGCCAGGAGGUCUUAGAAAGAAGCUGGCUGUCAGUGACCAUGUGGGCUGGAAUUCUCGGGUGCCAA | 1.7

Single results of other studies
Molecule | target | test | system | conditions | how to read | endpoint | value
PhoQ, residues 284 288 289 292 302 303 AGGCYF | PhoP, residues 12 14 15 18 19 STWGI (Escherichia coli, UniProt P23836) | Sort-seq, item: YFP reporter | E. coli | PhoQ-PhoP variant library, together with: 10 µM Mg2+ | baseline: high Mg2+ state, higher = stronger signaling | fold induction | 7.78

Excerpt of the above (sample 3):
Oligonucleotide | RBNS enrichment (R)
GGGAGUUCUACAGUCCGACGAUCCUUGUGAUAUCAGUGUAUGCGUACCUGUGUCGCUUUAUUUGCAGUGUGUUGAGGGACUGGUGUAUCCACUGGAAUAGUUGGUACUCUUGGAUGUGUUUUCUCACCAAGAUUGGAAUUCUCGGGUGCCAA | 0.529
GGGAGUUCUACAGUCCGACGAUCGAGAGAGCGUGUAACGUCAGAUUUGUGCCUGUCUCGAACAUUCUGUCCUAAUCAUACUUAAACAUCAGGCAGGUGGGGUUCAGUGGUAAGCGAAGGGAUUAUUAGCAAGGUGGAAUUCUCGGGUGCCAA | 1.81
